Assay results from different studies.
A part holds a random share of what one study measured. Substitutions count along the parent as printed.

Block 1
Target: Fragile X messenger ribonucleoprotein 1, C-terminal low-complexity region (Fmr1, Mus musculus, UniProt P35922)
Method: RNA Bind-n-Seq
Molecule type: RNA
Sample: in vitro
Concentration: 200 nM
Notes: whole 134-nt RNA, ends assumed
With: 150 mM LiCl
Relative to: input library
Reading: higher = stronger binding
All molecules: 7-deaza-guanosine replaces G
Shared flanks, not repeated: GGGAGUUCUACAGUCCGACGAUC … UGGAAUUCUCGGGUGUCAAGG
Strand | log2 enrichment
CACAGACAACACGCACCCACACAGACACAGAGGGAAGGGGUUGGGAUGGGGACAGGGUGCACAGCAGGGCGGGGUAGGACAAAAGCCCCU | -0.0808
CAAGUCCUGUGCUACACAUCGUAUGUACCGAAUCGGAAAAGGGAAAAGGGAAAAGGAAAGUAUUAUGUUACGCCGUUCGGAUCUGCACUU | -1.16
UGGCCCUGGUGGCAUGCGGGGAGGAAGAGGUGGCCUCAUGGAUCGUGGUGGUCCCGGUGGAAUGUUCAGGGGUGGCCGUGGUGGAGACAG | -0.563
AAGUCCUGUGCUACACAUCGUAUGUACCGAAUCGGCCCCGGCCCCGGGGCCCCGGGGAAAGUAUUAUGUUACGCCGUUCGGAUCUGCACU | -2.68
UAACUUUAGAGGAGGAUCUGAUGGAUAUGGCAGUGGACGUGGAUUUGGGGAUGGCUCUAAUGGGUAUGGAGGAGGACCUGGAGGUGGCAA | -0.207
CCUGUGCUACACAUCGUAUGUACCGAAUCGGAAAAAAAGGAAAAAAAGGAAAAAAAGGGGAAAGUAUUAUGUUACGCCGUUCGGAUCUGC | -0.881
CCUCAAGUCCUGUGCUACACAUCGUAUGUACCGAAUCGGAGGGGAGGGAGGGGAAAGUAUUAUGUUACGCCGUUCGGAUCUGCACUUCCA | -1.07
UGGCCCUGGUGGCAUGCGGGGAGGAAGAAGUGGCCUCAUGGAUCGUGGUGGUCCCGGUGGAAUGUUCAGAGGUGGCCGUGGUGGAGACAG | -0.233
UGUGCUACACAUCGUAUGUACCGAAUCGGGGAAAAAAAGGGAAAAAAAGGGAAAAAAAGGGGAAAGUAUUAUGUUACGCCGUUCGGAUCU | 0.491
UCCUGUGCUACACAUCGUAUGUACCGAAUCGGGGCCCCCCGGCCCCCCGGCCCCCCGGGAAAGUAUUAUGUUACGCCGUUCGGAUCUGCA | 0.951
UGGCCCUGAUGGCAUGCGGGGAGGAAGAGGUGGCCUCAUGGAUCGUGGUGGUCCCGGUGGAAUGUUCAGAGGUGGCCGUGGUGGAGACAG | -0.674

Block 2
Target: RNA binding protein fox-1 homolog 2, RRM domain, GST-SBP tag (RBFOX2, Homo sapiens, UniProt O43251-10, residues 100-194)
Method: RNA Bind-n-Seq
Molecule type: RNA
Sample: in vitro
Concentration: 365 nM
Notes: natural RNA segment, single round, ends assumed
Relative to: no-protein control
Reading: higher = stronger binding
Shared flanks, not repeated: GGGAGUUCUACAGUCCGACGAUC … UGGAAUUCUCGGGUGCCAA
Target sequence (chain): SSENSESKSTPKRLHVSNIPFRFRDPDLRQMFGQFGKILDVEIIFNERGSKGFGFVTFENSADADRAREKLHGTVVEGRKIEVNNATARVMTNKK
Strand | RBNS enrichment (R)
CGAGUGGGGCGCGUUUGUUCCUCACCCACGCGCGUGGGGAUCCCCUCGCCACAGGGAAGCACAAGAACCCCCUCCAUCCCGGAGGAUGCAGGACACGAAGCCCCGGGGUG | 0.273
AUCAACAAGGGAGUUUAAUUAUGUGUGAGACUGACACAAACCUUAAUGUAAUUUAGUUAGAAUGCCAGAAGGAGAACACUAUUUUCAUACCCUACUUUUUCUGUACCUAA | 0.678
CUUGUACAUCUGACUGUGGCUGCUCAGCUCUGUUUUGAGAAGGAAAGGGGCCAUCCUUUCUGUGAGCAGGUGGGUAGUCAGUGCCAUAGAGUAGGAAAGGGCGGGGGUGG | 0.412
CCCCUCGCCUUGGUGAUUUCUUGUUUGAUUUUGCCUCAUGGUCAAGAAAGGAGGGGGAAAAUCCAGCGUGCCCCAUCUCCUACCCACCCCCUCUUUGUAUUCUCUUUGUA | 0.634
GGAGCUUGUCUCUUCCAUAGACCUCCAAAGCUUCAGGGAAGGGAAAACCCAGGGUAUCUUCCCUCAGCAGCCUUCCAGCCGAGGACCAGAAAAGCUAUGAUUCCAUUAGA | 0.48
GCAGUUCAGUACAACUGCUCUUUUCACACUCAACUCCCUAAAACUCCUUGUAACCUUCUGUAACUAUUGGAUGACGCUUUCUCCAGCUUAGCCCUAAAUAAAGCACAGUU | 0.248
ACUGCUGAAGGGCUUCUUCUUAUAGCAAGAACUCUGCACAGCAACUGCCUGGAUGUGUUUGAUUUUUUAAAGCGUAGACAUAUAUUUAUGAAUGUGCAUUUCUUGACUUC | 3.12
UACAUUGUUAAAGUAACUUGGCUUCCCAGGACUGGAAUUAUCAUGGAGCAGUUAGAAUUUUGAGAGUAAUUACAACAGGAUCACAUUCUGAAAGAGUCACAUUUUGUCAA | 0.637
ACAGAAGUGAGCAAAUAAAGUGAGGAAGAAAUCUAUAUAUGAGAUAAUAUAGAUUGUAUUGAAAUCUUGCCUGUGGGUGAGGUUUUUCCUUCCUCCUCCCUGCCCCCUGC | 0.432
CAUUUUAAUUACUUGCAAAUUAAGUUACCACAGACUCUGUAGUGUGUAAAUGUUGACAAGGAAUUGGAUCACAAUCAUGUAGCAGAAUGGCACCCAGACCACUGCCCACC | 0.411
ACAUGGAGCUCUUCCAUUUCGUUUAGCUGAAUAAUGAGUUGUUCCUAGAGGAGACAGCCUGUCUCUCCUUGUUGCCCCCAAAGCCCAUGCCCUGCCGUGGUGGCAGCUGG | 0.265
AUUUUUCUGAACACUGCAAAAAUAGAACGUAGCAAAAUGGCUUCAGUUAUCACUUUUGGGUGUCUGUAUCCUAAGAAGUUUCUGAAAAGAUCUAAAGCCUUUUUAUCCCA | 0.337

Block 3
Target: UBE2B UBC core domain (UniProt P63146)
UniProt P63146, sequence (whole entry, looked up): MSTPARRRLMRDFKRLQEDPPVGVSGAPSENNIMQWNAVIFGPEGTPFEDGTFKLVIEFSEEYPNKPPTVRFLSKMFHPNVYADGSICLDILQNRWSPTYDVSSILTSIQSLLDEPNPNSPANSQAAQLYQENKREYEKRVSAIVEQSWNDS
Method: yeast two-hybrid
Sample: yeast
Notes: mostly zero background
Relative to: not given
Reading: higher = stronger interaction
B1: MYCBP2 RING domain (UniProt O75592); chain TSLKQDADDMCMICFTEALSAAPAIQLDCSHIFHLQCCRRVLENRWLGPRITFGFISCPICKNKINHIVLKD
B2: RNF2 RING domain (UniProt Q99496); chain SPRSLHSELMCPICLDMLKNTMTTKECLHRFCADCIITALRSGNKECPTCRKKLVSKRSLR
B3: RNF31 RING domain (UniProt Q96EP0); chain AFLRRLLAQECAVCGWALPHNRMQALTSCECTICPDCFRQHFTIALKEKHITDMVCPACGRPDLTDDTQLL
B4: TRIM31 RING domain (UniProt Q9BZY9); chain FVNKLQEEVICPICLDILQKPVTIDCGHNFCLKCITQIGETSCGFFKCPLCKTSVRKNAIRF
B5: TRIM22 RING domain (UniProt Q8IYM9); chain VKVDIEKEVTCPICLELLTEPLSLDCGHSFCQACITAKIKESVIISRGESSCPVCQTRFQPGNLRP
B6: ANAPC11 RING domain (UniProt Q9NYG5); chain GICRMAFNGCCPDCKVPGDDCPLVWGQCSHCFHMHCILKWLHAQQVQQHCPMCRQEWKFKE
B7: TRIM37 RING domain (UniProt O94972); chain SVESIAEVFRCFICMEKLRDARLCPHCSKLCCFSCIRRWLTEQRAQCPHCRAPLQLRELVN
B8: TRIM60 RING domain (UniProt Q495X7); chain ALVNLQEESSCPICLEYLKDPVTINCGHNFCRSCLSVSWKDLDDTFPCPVCRFCFPYKSFRR
B9: RNF122 RING domain (UniProt Q9H9V4); chain AKKLQLYGQTCAVCLEDFKGKDELGVLPCQHAFHRKCLVKWLEVRCVCPMCNKPIASPSEAT
B10: DEF8 RING domain (UniProt Q6ZN54); chain AGRLGCSLTEIHTLFAKHIKLDCERCQAKGFVCELCREGDVLFPFDSHTSVCADCSAVFHRDCYYDNSTTCPKCARLSLRK
B11: MEX3B RING domain (UniProt Q6ZN04); chain SGLRRKGSRDCSVCFESEVIAALVPCGHNLFCMECANRICEKSEPECPVCHTAVTQAIRIF
Molecule | lacZ reporter activity
B1 (MYCBP2 RING domain) | 0
B2 (RNF2 RING domain) | 0
LDAASGHPLVCPLCHGQYERPCLLDCFHDFCTGCLRGRATDGRLSCPLCQHQTLVKGPSG (Rnf207 RING domain (UniProt Q3V3A7)) | 0
B3 (RNF31 RING domain) | 0
B4 (TRIM31 RING domain) | 0
B5 (TRIM22 RING domain) | 0
YPEEVDDDLICHICLQALLDPLDTPCGHTYCTLCLTNFLVEKDFCPMDRKPLVLQHCKK (LNX1 RING domain (UniProt Q8TBB1)) | 0
B6 (ANAPC11 RING domain) | 0
B7 (TRIM37 RING domain) | 0
B8 (TRIM60 RING domain) | 0
B9 (RNF122 RING domain) | 0
B10 (DEF8 RING domain) | 0
B11 (MEX3B RING domain) | 0
YCEMGSTFQLCKICAENDKDVKIEPCGHLMCTSCLTAWQESDGQGCPFCRCEIKGTEPII (CBLB RING domain (UniProt Q13191)) | 0

Block 4
Target: ABI1, truncated, D143A, DHFR fusion (Arabidopsis thaliana)
Method: DHFR PCA, deep sequencing
Sample: yeast
Notes: methotrexate growth selection, single substitutions
With: (+)-ABA 0.39 µM
Relative to: wild-type fitted maximum
Reading: higher = stronger binding
Parent: PYL1, truncated, DHFR fusion (Arabidopsis thaliana); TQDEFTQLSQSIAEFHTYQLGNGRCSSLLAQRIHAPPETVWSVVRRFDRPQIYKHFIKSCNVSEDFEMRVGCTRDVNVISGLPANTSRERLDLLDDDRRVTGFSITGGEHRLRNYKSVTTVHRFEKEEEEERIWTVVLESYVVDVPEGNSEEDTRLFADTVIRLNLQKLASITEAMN; partner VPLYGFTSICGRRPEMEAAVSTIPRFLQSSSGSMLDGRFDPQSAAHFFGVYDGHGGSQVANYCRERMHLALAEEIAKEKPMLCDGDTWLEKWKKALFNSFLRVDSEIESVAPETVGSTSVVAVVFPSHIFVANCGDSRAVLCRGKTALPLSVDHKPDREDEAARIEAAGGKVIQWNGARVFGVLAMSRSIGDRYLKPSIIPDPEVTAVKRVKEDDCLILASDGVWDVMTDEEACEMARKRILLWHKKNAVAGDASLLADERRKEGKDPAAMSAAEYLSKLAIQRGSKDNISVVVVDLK
Variant | relative binding score
G102L | -6.4%
K116T | 19.7%
D48T | -13.5%
E127Q | 58%
H34I | 8.86%
N22D | 56.2%
M176Y | -8.74%
E128N | 52.8%
R123N | 28.6%
T39W | 3.8%
S104G | -1.62%
R49L | 9.03%
Y115K | -3.24%
D96R | -6.99%
T173R | -14.8%

Block 5
Target: CCNB1, cyclin fold, Cln2 fusion (human)
Method: yeast growth competition, sequencing
Sample: yeast
Notes: weak parent motif
Relative to: not given
Reading: higher = stronger binding
Parent: CDC25A docking peptide (human); PPHRRRLLFACSP
Variant | normalised enrichment score
A10P | 0.762
L7K | 0.477
C11H | 0.523
C11I | 0.529
F9D | -0.285
S12H | 0.571
A10G | 0.226
C11W | 0.253
F9Y | 1.05
A10W | 0.293
F9V | 0.515
P1H | 0.534
R6E | 0.533
R4A | 1.23
R4S | 0.227
R4M | 0.0896
R6S | 0.448
C11D | -0.117
L7I | 1.18
P13E | 0.128
C11F | 0.766
H3Q | -0.0841
